Published values of several laboratories.
Protocols differ between the studies behind these lines. Several values in a cell are separate wells, animals, samples, runs or records.
Target: Serine/threonine-protein kinase 26 (STK26, Homo sapiens, UniProt Q9P289)

COc1c(Cl)cccc1Nc1c(-c2ccncc2C#C[C@@]2(C)CCCN2C(=O)/C=C/CN(C)C)[nH]c2c1C(=O)NCC2
remaining binding (binding, competition with immobilised ligand; 3 µM): 73%

Cc1ccc(-c2c(/C=C(\C#N)C(=O)NC(C)C)n(CCCO)c3ncnc(N)c23)cc1
remaining binding (cell-free assay, competition with immobilised ligand; 1 µM): 64%

Nc1ncc2c(n1)-c1c([nH]c3ccc(C4=CCOCC4)cc13)CCC2
remaining binding (binding, competition with immobilised ligand; 1 µM): 93%

Nc1ncc(-c2cc(-c3cnn(CC(F)(F)F)c3)ncc2F)nc1C(=O)NC1CNCC(F)C1 (centres unmarked)
remaining activity (enzyme activity; 1 µM; relative to: DMSO control): 106%

COc1ccc(C(=O)/C=C/c2ccccc2-c2c[nH]c3ccc(C#N)cc23)c(O)c1
inhibition (enzyme activity, inhibitor; 20 µM): -2%

Cc1cccc(-c2ccc3nc(NC(=O)C4CCCCC4)nn3c2)c1
remaining activity (enzyme activity, Dundee kinase panel; 10 µM): 79%

NC(=O)[C@@H](O)C[C@H]1CCc2sc3ncnc(O[C@H]4CC[C@H](N5CCOCC5)CC4)c3c21
inhibition (enzyme activity, inhibitor; 10 µM): 8%

Cc1cccc(O[C@H]2CCC[C@@H](C(C)CNCc3ccncc3)C2)c1 (relative stereo)
inhibition (enzyme activity, inhibitor; 10 µM): -14%

C=CC(=O)Nc1cc(-c2nn(C3CCN(CCNC(=O)[C@H](C)CCC45CC6CC(CC(C6)C4)C5)CC3)c3ncnc(N)c23)ccc1Oc1ccccc1
inhibition (inhibitor, KiNativ profiling; biochemical; 2 µM): -60%

CCN1CCN(Cc2ccc(C(=O)Nc3ccc(C)c(NCc4cnc5[nH]ccc5c4OC)c3)cc2C(F)(F)F)CC1
remaining binding (binding, competition with immobilised ligand; 1 µM): 25%

C=CC(=O)Nc1cccc(-c2cnc3[nH]cc(C(=O)NC(C)(C)C)c3n2)c1
inhibition (kinase activity; 0.1 µM): 30% and 34%

C=CC(=O)N1CCCC(n2c(=O)c3ncccc3n(Cc3ccc(Oc4ccccc4)cc3)c2=O)C1 (centres unmarked)
remaining binding (cell-free assay, competition with immobilised ligand; 1 µM): 92%

Cc1cccc(-c2ccc3nc(NC(=O)C4CCOCC4)nn3c2)c1
remaining activity (enzyme activity, Dundee kinase panel; 10 µM): 84%

COCC12C(=O)NC3C4(C(OC)CC1O)C1CC5(O)C(OC)C(O)C(OC(C)=O)(C1C5OC(=O)c1ccccc1)C3(O)C(OC)C24 (centres unmarked)
remaining activity (kinase activity, inhibitor, ProQinase kinase profiling; 25 µM; relative to: control): 112% and 117%

C=CC(=O)N1CCc2ccc(-n3c(=O)ccc4cnc5ccc(-c6cnn(C)c6)cc5c43)cc21
remaining binding (KINOMEscan; 1 µM; relative to: DMSO control): 99%

CNC(=O)C[C@H](Cc1ccc(C#N)cc1)NC(=O)c1cc(-c2ccc(CN[C@H](C)c3ccc(C)cc3)o2)ccc1Cl
activity vs control (enzyme activity, inhibitor; 1 µM): 90%

COc1cc(Nc2nccc(-c3cnn4nc(OC)ccc34)n2)cc(C(F)(F)F)c1
remaining binding (binding, competition with immobilised ligand; 1 µM): 100%

Repeated from above:
NC(=O)[C@@H](O)C[C@H]1CCc2sc3ncnc(O[C@H]4CC[C@H](N5CCOCC5)CC4)c3c21
inhibition (enzyme activity, inhibitor; 10 µM): 8%

Cc1cccc(O[C@H]2CCC[C@@H](C(C)CNCc3ccncc3)C2)c1 (relative stereo)
inhibition (enzyme activity, inhibitor; 10 µM): -14%
